Measured values of several laboratories.
Parts stem from different laboratories: compare values within a part only. Values joined by “and” are separate records of one study, mostly repeats; a detail may differ. Changes are numbered by the printed parent chain.

Study 1
Target: Sal-like protein 4, full length isoform B (SALL4, Homo sapiens, UniProt Q9UJQ4-2, residues 1-616)
Method: universal PBM
Form: double-stranded DNA, one strand shown
Matrix: in vitro
Tested at: not given
Notes: 8-mer, flanks averaged, mean of replicates
Reading: higher = stronger binding
| Oligonucleotide | E-score |
| --- | --- |
| GTTGCCAA | -0.0147 |
| AACGGATC | 0.0472 |
| GTAGCACA | -0.0705 |
| CACTGCAA | 0.0343 |
| AGGTTCGG | -0.158 |
| ATTGGGTA | 0.0821 |
| CGGCAATC | -0.226 |
| AAGGGAAT | 0.0998 |

Study 2
Target: Interferon regulatory factor 7, full length, phosphomimetic (IRF7, Homo sapiens, UniProt Q92985, residues 1-503, S101K/S471D/S472D/S475D/S476D/S477D/S483D/S484D/S487D)
Method: protein-binding microarray
Form: double-stranded DNA, one strand shown
Matrix: in vitro
Tested at: 250 nM
Notes: 60-bp whole probe
With: salmon DNA 0.4 mg/ml
Relative to: random background probes
Reading: higher = stronger binding
Constant ends, left off below: GCCTAGCAC … GTCTTGATTCGCTTGACGCTGCTG
Target sequence (chain): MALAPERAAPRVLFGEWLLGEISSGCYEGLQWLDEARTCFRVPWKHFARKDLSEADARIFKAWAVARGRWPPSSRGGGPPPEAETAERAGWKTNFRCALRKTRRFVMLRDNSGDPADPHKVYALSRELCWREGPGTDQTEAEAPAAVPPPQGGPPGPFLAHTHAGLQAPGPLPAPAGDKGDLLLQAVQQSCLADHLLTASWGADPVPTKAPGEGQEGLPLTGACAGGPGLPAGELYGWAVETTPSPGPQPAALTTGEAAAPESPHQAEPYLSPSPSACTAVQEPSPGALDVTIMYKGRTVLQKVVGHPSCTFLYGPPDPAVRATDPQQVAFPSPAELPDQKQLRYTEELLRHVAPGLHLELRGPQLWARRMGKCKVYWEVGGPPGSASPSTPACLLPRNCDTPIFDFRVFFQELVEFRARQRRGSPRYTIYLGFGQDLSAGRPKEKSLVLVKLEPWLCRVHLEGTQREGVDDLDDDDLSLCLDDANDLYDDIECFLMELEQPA
| Oligonucleotide | log fluorescence |
| --- | --- |
| GACGGACTGGGGACCGGGGACGTGCTA | -0.531 z-score |
| TTAGGGCTGGACTTTCGGTTAGTGCTA | -0.332 z-score |
| GACGGACTGGGTCTCGGGAAGTGCTAG | -0.325 z-score |
| TCAAAATTATCTTTAATACTGTGCTAG | -0.0239 z-score |
| TTAGAACTGAGTCTCGAATAGTGCTAG | 0.244 z-score |
| TTAGGACTGGGTATCAGTTAGTGCTAG | -0.247 z-score |
| TTAGAACTGGACTTTCGGTTAGTGCTA | 0.982 z-score |
| TACGGTCTCGGTTTCGGGACGTGCTAG | 7.91 z-score |
| GACGGACTGGACTATCCGGACGTGCTA | -0.607 z-score |

Study 3
Target: CCNB2, cyclin fold, Cln2 fusion (human)
Method: yeast growth competition, sequencing
Matrix: yeast
Notes: weak parent motif
Relative to: not given
Reading: higher = stronger binding
Parent: GMNC docking peptide (human); KNAKRNLSSEFAN; partner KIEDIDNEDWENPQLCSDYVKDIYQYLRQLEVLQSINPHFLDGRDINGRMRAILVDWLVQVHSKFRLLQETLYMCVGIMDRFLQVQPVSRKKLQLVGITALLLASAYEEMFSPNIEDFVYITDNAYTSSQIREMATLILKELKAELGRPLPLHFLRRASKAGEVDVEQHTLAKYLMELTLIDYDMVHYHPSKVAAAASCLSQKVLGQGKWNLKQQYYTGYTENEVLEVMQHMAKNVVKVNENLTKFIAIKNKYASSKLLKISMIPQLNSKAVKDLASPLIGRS
| Change | normalised enrichment score |
| --- | --- |
| A12L | 0.109 |
| A3Q | 0.544 |
| F11C | 0.38 |
| E10T | 0.0311 |
| F11D | 0.146 |
| S9Q | 0.076 |
| A3G | 0.446 |
| A3P | -0.0283 |
| K4W | 0.356 |
| F11Y | 0.297 |
| N2Y | 0.892 |

Mixed results
| Molecule | target | test | test system | conditions | how to read | measurement | result |
| --- | --- | --- | --- | --- | --- | --- | --- |
| PhoQ, residues 284 288 289 292 302 303 ASSHFY | PhoP, residues 12 14 15 18 19 LWHSL (Escherichia coli, UniProt P23836) | Sort-seq, refers to: YFP reporter | E. coli | PhoQ-PhoP variant library, with: 10 µM Mg2+ | relative to: high Mg2+ state, higher = stronger signaling | fold induction | 15.2 and 28.4 |
